Assay results pooled from the literature.
Compare with care: the assays were run in different laboratories. Values joined by “and” are separate records of one study, mostly repeats; a detail may differ. ± gives the spread as reported.
bglR: Beta-glucuronidase (bglR, Clostridium perfringens, UniProt Q8XP19)
SCN9A: Sodium channel protein type 9 subunit alpha (SCN9A, Homo sapiens, UniProt Q15858)
Replicase polyprotein 1a papain-like protease: Replicase polyprotein 1a, papain-like protease (Severe acute respiratory syndrome coronavirus 2, UniProt P0DTC1)
OPG122: mRNA-decapping protein OPG122 (OPG122, Vaccinia virus, UniProt P04312)

| SMILES | target | test | test system | conditions | IC50 |
| --- | --- | --- | --- | --- | --- |
| COc1cccc2[nH]c(C(=O)NC(CC(C)C)C(=O)NC(CC3CCCNC3=O)C(=O)COC(=O)c3c(C)cc(C)nc3C)cc12 (stereo not shown) | Cathepsin B (CTSB, Homo sapiens, UniProt P07858) | enzyme activity, inhibitor, fluorescence | – | pH 5, with preincubation | 0.437 µM |
| CC(C)C[C@@H]1NC(=O)[C@H](CCCNC(=N)N)NC(=O)[C@@H]2CCCN2C(=O)[C@@H]2CSSC[C@H](NC(=O)CNC(=O)[C@@H]3CCCN3C(=O)[C@H](CCCCN)NC(=O)[C@H](CC(=O)O)NC(=O)[C@@H](NC(=O)CN)C(C)C)C(=O)N[C@@H](CCCNC(=N)N)C(=O)N[C@@H](Cc3ccc(O)cc3)C(=O)N[C@@H](CC(C)C)C(=O)N[C@@H](Cc3ccccc3)C(=O)NCC(=O)NCC(=O)N[C@H]3CSSC[C@H](NC(=O)CNC1=O)C(=O)N[C@@H](CCCCN)C(=O)NCC(=O)N[C@@H](CCCCN)C(=O)NCC(=O)N[C@@H](Cc1c[nH]cn1)C(=O)N[C@@H](CC(=O)O)C(=O)N[C@@H](Cc1ccc(O)cc1)C(=O)N[C@H](C(=O)N[C@@H](C)C(=O)N[C@@H](Cc1c[nH]c4ccccc14)C(=O)N[C@@H](CC(=O)O)C(=O)NCC(=O)N[C@H](C(=O)N[C@@H](Cc1ccccc1)C(=O)N[C@@H](CO)C(=O)N[C@@H](CC(=O)O)C(=O)O)[C@@H](C)O)CSSC[C@H](NC(=O)[C@H](CC(=O)O)NC(=O)[C@H](CC(=O)O)NC(=O)[C@H](CC(=O)O)NC(=O)[C@H](CO)NC(=O)[C@H](CCCCN)NC3=O)C(=O)N2 | Sodium channel protein type 1 subunit alpha (SCN1A, Homo sapiens, UniProt P35498) | peak sodium current, inhibitor, automated patch clamp | HEK293 | holding potential -80 mV, together with: 0.1 % BSA | 0.55 µM |
| CC1=C(C(=O)Nc2ccc(F)cc2)C(c2ccccc2Cl)NC(=S)N1 (stereo not shown) | Angiotensin-converting enzyme 2, with SARS-CoV-2 spike RBD (ACE2, Homo sapiens, UniProt Q9BYF1) | inhibitor | – | – | ~0.0125 µM and 0.0125 µM |
| O=C(O)c1ccc(Nc2cc(Nc3ccc(C(=O)O)cc3)c3c(=O)c(Nc4ccc(C(=O)O)cc4)c(-c4ccc(Nc5ccc(C(=O)O)cc5)c(Nc5ccc(C(=O)O)cc5)c4)oc3c2)cc1 | Angiotensin-converting enzyme 2, with SARS-CoV-2 spike (ACE2, Homo sapiens, UniProt Q9BYF1) | – | – | – | 14.4 µM |
| CC[C@H](C)[C@@H]1NC(=O)[C@@H]2CSSC[C@H](NC(=O)[C@H](CCCNC(=N)N)NC(=O)[C@@H]3CSSC[C@H](NC1=O)C(=O)N[C@@H]([C@@H](C)O)C(=O)N[C@@H](CCCNC(=N)N)C(=O)NCC(=O)N[C@@H](Cc1ccccc1)C(=O)N3)C(=O)N[C@@H](CC(N)=O)C(=O)N[C@H]1CSSC[C@H](NC(=O)[C@H](Cc3c[nH]cn3)NC(=O)[C@H](CCC(=O)O)NC(=O)[C@H](CO)NC(=O)[C@H](C)NC1=O)C(=O)N[C@@H]([C@@H](C)O)C(=O)N2 | Lethal factor (Bacillus anthracis, UniProt P15917) | enzyme activity, inhibitor | – | – | > 10 µM |
| C1CCN(c2nnnc3c2sc2nc(N4CCOCC4)c4c(c23)CCCC4)CC1 | bglR | – | – | – | > 100 µM |
| O=C(NCCOC(=O)[C@@H]1CCCCN1S(=O)(=O)Cc1ccccc1)c1cccnc1 | Peptidyl-prolyl cis-trans isomerase (Burkholderia pseudomallei, UniProt Q63J95) | enzyme activity, inhibitor | – | – | 0.42 µM |
| CC(C)C[C@@H]1NC(=O)[C@H](CO)NC(=O)[C@H](CCCCN)NC(=O)[C@@H]2CSSC[C@H](N)C(=O)N[C@@H](CC(C)C)C(=O)NCC(=O)N[C@@H](Cc3ccccc3)C(=O)NCC(=O)N[C@@H](CCC(=O)O)C(=O)N[C@@H](CCCCN)C(=O)N[C@H]3CSSC[C@H](NC(=O)[C@H](C(C)C)NC1=O)C(=O)N[C@@H](CCC(N)=O)C(=O)N[C@@H](CCCCN)C(=O)N[C@@H](Cc1c[nH]cn1)C(=O)N[C@@H](CCCCN)C(=O)N[C@@H](Cc1c[nH]c4ccccc14)C(=O)N[C@H](C(=O)N[C@@H](CCCCN)C(=O)N[C@@H](Cc1ccc(O)cc1)C(=O)O)CSSC[C@H](NC(=O)[C@H](CCCCN)NC(=O)[C@H](CC(=O)O)NC(=O)[C@H](CC(N)=O)NC(=O)[C@H](CC(N)=O)NC3=O)C(=O)N2 | SCN9A | ion current, inhibitor, patch clamp | – | – | 39.6 µM |
| Cc1ccc(N2CC(N3CCC(C)(O)CC3)C2)cc1C(=O)NC1(c2ccc3c4c(cccc24)CC3)CC1 | Replicase polyprotein 1a papain-like protease | cell-free assay | – | – | 0.002 µM |
| CCC(CC)O[C@@H]1C=C(C(=O)O)C[C@H](NCc2ccc(N3CC[C@H](F)C3)cc2)[C@H]1NC(C)=O (stereo in doubt) | Neuraminidase (NA, Influenza A virus, UniProt P03468) | enzyme activity, inhibitor | – | – | 0.23 µM |
| C[n+]1cn(C2OC(COP(=O)(O)OP(=O)(O)O)C(O)C2O)c2nc(N)[nH]c(=O)c21 (stereo not shown) | OPG122 | – | – | – | 21 µM |
| CC(=O)OC/C=C/C1=CC2=C(CO1)C(=O)[C@](C)(O)[C@H](OC(=O)c1c(C)cc(O)cc1O)C2 | Neuraminidase (NA, Influenza A virus, UniProt Q6DPL2) | – | influenza A virus H5N1 | – | 29.9 ± 0.6 µM |
| O=C(O[C@@H]1Cc2c(O)cc(O)cc2O[C@@H]1c1cc(O)c(O)c(O)c1)c1cc(O)c(O)c(O)c1 | Replicase polyprotein 1a, main protease (Severe acute respiratory syndrome-related coronavirus, UniProt P0C6U8) | enzyme activity, inhibitor | – | – | ≥ 100 µM |
| COc1nc(N)nc2c1ncn2C1OC(COP(=O)(O)OP(=O)(O)OP(=O)(O)O)C(O)C1O (stereo not shown) | OPG122 | – | – | – | > 200 µM |
| CNc1nc2sc3c(N4CCNCC4)nnnc3c2c2c1CCCC2 | bglR | – | – | – | 0.034 ± 0.002 µM |
| Cc1ccc(N2CCNCC2)cc1C(=O)NC1(c2ccc3c4c(cccc24)CC3)CC1 | Replicase polyprotein 1a papain-like protease | enzyme activity, inhibitor | – | – | 0.021 µM |
| Nc1nc2c(ncn2C2OC(COP(=O)(O)O)C(O)C2O)c(=O)[nH]1 (stereo not shown) | OPG122 | – | – | – | > 200 µM |
| CC1=CC(=C(c2cc(C)c(O)c(C(=O)O)c2)c2c(Cl)ccc(S(=O)(=O)O)c2Cl)C=C(C(=O)O)C1=O | Ba71V-97, DNA complex (African swine fever virus, UniProt P42494) | enzyme activity, inhibitor | – | – | 35.2 ± 1.8 µM |
| CCC(C(=O)Nn1cccc1)n1cc(F)cc2nc(SCc3ccc(F)cc3)nc1-2 (stereo not shown) | Replicase polyprotein 1ab, papain-like protease (rep, Middle East respiratory syndrome-related coronavirus, UniProt K9N7C7) | enzyme activity, inhibitor | – | – | > 100 µM |
| Nc1ccc(Cl)cc1C(=O)NCC(COCP(=O)(O)OP(=O)(O)OP(=O)(O)O)Cn1cnc2c(N)ncnc21 (stereo not shown) | Calmodulin-sensitive adenylate cyclase (cya, Bacillus anthracis, UniProt P40136) | – | – | – | 0.14 ± 0.015 µM |
| CC[C@H](C)[C@H](NC(=O)[C@H](Cc1c[nH]cn1)NC(=O)[C@H](Cc1ccc(O)cc1)NC(=O)[C@H](CCCCN)NC(=O)[C@@H]1CSSC[C@@H]2NC(=O)[C@H](CCC(=O)O)NC(=O)[C@H](CC(=O)O)NC(=O)[C@H](C)NC(=O)CNC(=O)[C@H](Cc3ccc(O)cc3)NC(=O)[C@H](CCCCN)NC(=O)[C@@H]3CSSC[C@H](NC(=O)[C@H](C(C)C)NC(=O)[C@H](Cc4ccc(O)cc4)NC(=O)CNC(=O)[C@H](CCCCN)NC(=O)[C@H](CSSC[C@H](NC(=O)[C@@H](N)CO)C(=O)N[C@@H](CCCCN)C(=O)N[C@@H](C(C)C)C(=O)N[C@@H](Cc4c[nH]c5ccccc45)C(=O)N[C@@H](Cc4ccccc4)C(=O)N[C@@H](CC(N)=O)C(=O)N[C@@H](CCC(=O)O)C(=O)N3)NC2=O)C(=O)N[C@@H](CO)C(=O)N[C@@H](CCCCN)C(=O)N[C@@H](CCCNC(=N)N)C(=O)N[C@@H](CC(=O)O)C(=O)NCC(=O)N[C@@H](Cc2c[nH]c3ccccc23)C(=O)N1)C(=O)N[C@@H](CC(N)=O)C(=O)O | SCN9A | ion current, inhibitor, patch clamp | – | – | 1.75 µM |
| CC(=O)NC1C(O)C=C(C(=O)O)OC1C(O)C(O)CO (stereo not shown) | Sialidase (nanI, Clostridium perfringens, UniProt A0A0H2YQR1) | enzyme activity, inhibitor | – | – | 17 µM |
| Cn1cnc2c(ncn2C2OC(COP(=O)(O)OP(=O)(O)OP(=O)(O)O)C(O)C2O)c1=N (stereo not shown) | OPG122 | – | – | – | 175 µM |
| C(=C\c1ccc(-c2ccccc2)cc1)/Cn1ccnc1 | Mycocyclosin synthase (cyp121, Mycobacterium tuberculosis, UniProt P9WPP7) | mycocyclosin formation, inhibitor, LC-MS/MS | – | together with: cYY 20 µM | 26 µM |
| CC(C)C[C@H](NC(=O)[C@H](CC(=O)O)NC(=O)[C@H](Cc1ccc(O)cc1)NC(=O)[C@H](CCCCN)NC(=O)[C@@H]1CSSC[C@@H]2NC(=O)[C@H](CCCCN)NC(=O)[C@H](CC(=O)O)NC(=O)[C@H](CC(N)=O)NC(=O)[C@H](CO)NC(=O)[C@@H]3CCCN3C(=O)[C@H](CC(N)=O)NC(=O)[C@@H]3CSSC[C@H](NC(=O)[C@H](C(C)C)NC(=O)[C@H](CC(C)C)NC(=O)[C@H](CO)NC(=O)[C@H](CO)NC(=O)[C@H](CO)NC(=O)[C@H](CCCCN)NC(=O)[C@H](CSSC[C@H](NC(=O)[C@H](C)N)C(=O)N[C@@H](CC(C)C)C(=O)NCC(=O)N[C@@H](CCCCN)C(=O)NCC(=O)N[C@@H](CCC(=O)O)C(=O)N[C@@H](CCCCN)C(=O)N3)NC2=O)C(=O)N[C@@H](CO)C(=O)N[C@@H](CCC(N)=O)C(=O)N[C@@H](CCCCN)C(=O)N[C@@H](Cc2c[nH]cn2)C(=O)N[C@@H](CCCCN)C(=O)N[C@@H](Cc2c[nH]c3ccccc23)C(=O)N1)C(=O)O | SCN9A | ion current, inhibitor, patch clamp | – | – | > 20 µM |
